Measured values pooled from the literature.
Protocols differ between the studies behind these lines. Numbers after ± are the reported error.

| Compound | test | system | conditions | quantity | result |
| --- | --- | --- | --- | --- | --- |
| CN1CCC[C@]1(C)/C=C/S(=O)(=O)NC(=O)Nc1c2c(cc3c1CCC3)CC=C2 | – | human, plasma | oral, 12.5 mg twice daily of parent drug, day 14, metabolite of dosed drug | Tmax at second steady-state dose | 3 h |
| CN(C(=O)C(C)(C)c1cc(C(F)(F)F)cc(C(F)(F)F)c1)c1cnc(N2C[C@H]3COCCN3C[C@H]2CO)cc1-c1ccc(F)cc1CO | – | human, plasma | oral, 120 mg, median | Tmax | 1.75 h |
| CC[C@H](C)[C@@H]1NC(=O)[C@H](Cc2ccc(O)cc2)NC(=O)CCCSC[C@@H](C(=O)N(CC(=O)N[C@@H](CC(C)C)C(=O)NCC(N)=O)Cc2ccc(F)cc2)NC(=O)[C@H](CC(N)=O)NC(=O)[C@H](CCC(N)=O)NC1=O | – | healthy human, plasma | intranasal, 200 µg every 3 h, after last dose | tmax median | 0.33 h |
| COc1cc2c(cc1O)CCN1C[C@@H](CC(C)C)[C@@H](O)C[C@H]21 | item: non-deuterated analyte | healthy human male, plasma | oral, 25 mg, median, [14C]-tetrabenazine dosed | Tmax | 2.25 h |
| [2H]C([2H])([2H])NC(=O)c1ccc(N2C(=S)N(c3ccc(C#N)c(C(F)(F)F)c3)C(=O)C2(C)C)cc1F | – | human male, plasma | oral, 160 mg, single dose after meal | Tmax | 2.04 ± 1.27 h |
| CCCCCCCOc1ccc(CC[C@](N)(CO)COP(=O)(O)O)cc1C(F)(F)F | – | healthy male humans, plasma | 0.5 mg amiselimod, day 21, median | Tmax | 8 h |
| Cc1cc(F)ccc1-c1cc(N2C[C@H]3COC(O)CN3C[C@H]2CO)ncc1N(C)C(=O)C(C)(C)c1cc(C(F)(F)F)cc(C(F)(F)F)c1 (stereo partly shown) | – | human, plasma | oral, 120 mg, median | Tmax | 2.01 h |
| CN1CCC[C@]1(C)/C=C/S(=O)(=O)NC(=O)Nc1c2c(cc3c1C(O)CC3)CCC2 (stereo partly shown) | – | human, plasma | oral, 12.5 mg twice daily of parent drug, day 14, metabolite of dosed drug | Tmax at first steady-state dose | 3 h |
| CC(C)C[C@H](NC(=O)[C@H](CCCN)NC(=O)CNC(=O)[C@@H](NC(=O)[C@H](C)NC(=O)[C@@H]1CSCSC[C@H](NC(=O)CC[C@H](N)C(=O)O)C(=O)N[C@@H](CC(N)=O)C(=O)N[C@@H]([C@@H](C)O)C(=O)N[C@@H](C)C(=O)N[C@@H]([C@@H](C)O)C(=O)N1)[C@@H](C)O)C(=O)N[C@@H](C)C(=O)N[C@@H](CCC(=O)O)C(=O)N[C@@](C)(Cc1ccccc1)C(=O)N[C@@H](CC(C)C)C(=O)N[C@H](C(=O)N[C@@H](CCCNC(=N)N)C(=O)N[C@@H](CO)C(=O)N[C@@H](CO)C(=O)N[C@@H](CC(N)=O)C(=O)N(C)[C@@H](CC(N)=O)C(=O)N[C@@H](Cc1ccccc1)C(=O)NCC(=O)N1CCC[C@H]1C(=O)N[C@@H](CCCCNC(=O)CC[C@H](NC(=O)CC[C@H](NC(=O)CCCCCCCCCCCCCCCCCCC(=O)O)C(=O)O)C(=O)O)C(=O)N[C@@H](CC(C)C)C(=O)N1CCC[C@H]1C(=O)N1CCC[C@H]1C(=O)N[C@H](C(=O)N[C@@H](CCC(=O)O)C(=O)N[C@H](C(=O)NCC(=O)N[C@@H](CO)C(=O)N[C@@H](CC(N)=O)C(=O)N[C@H](C(=O)N[C@@H](Cc1ccc(O)cc1)C(N)=O)[C@@H](C)O)C(C)C)[C@@H](C)O)C(C)C | – | healthy human | subcutaneous, 12 mg | tmax | 72 to 132 h |
| CN1CCC[C@]1(C)/C=C/S(=O)(=O)NC(=O)Nc1c2c(cc3c1CCC3O)CCC2 (stereo partly shown) | – | human, plasma | oral, 100 mg twice daily of parent drug, day 14, metabolite of dosed drug | Tmax at first steady-state dose | 2 h |
| COc1cc2c(cc1OC)[C@H]1C[C@H](O)[C@H](CC(C)C)CN1CC2 | item: non-deuterated analyte | healthy human male, plasma | oral, 25 mg, median, [14C]-tetrabenazine dosed | Tmax | 1.5 h |
| CN1CCC[C@]1(C)/C=C/S(=O)(=O)NC(=O)Nc1c2c(cc3c1CC(O)C3)CCC2 (stereo partly shown) | – | human, plasma | oral, 12.5 mg twice daily of parent drug, day 14, metabolite of dosed drug | Tmax at first steady-state dose | 3 h |
| Cc1[nH]c(=O)c(CNC(=O)c2cc(Cl)c3c(c2C)O[C@@](C)([C@H]2CC[C@H](N(C)C)CC2)O3)c(C)c1O | – | human male, plasma | oral, 200 mg, single dose, metabolite of valemetostat, added: [14C]-valemetostat | Tmax | 4 h |

Repeated from above:
| Compound | test | system | conditions | quantity | result |
| --- | --- | --- | --- | --- | --- |
| CCCCCCCOc1ccc(CC[C@](N)(CO)COP(=O)(O)O)cc1C(F)(F)F | – | healthy male humans, plasma | 0.5 mg amiselimod, day 21, median | Tmax | 8 h |
| COc1cc2c(cc1OC)[C@H]1C[C@H](O)[C@H](CC(C)C)CN1CC2 | item: non-deuterated analyte | healthy human male, plasma | oral, 25 mg, median, [14C]-tetrabenazine dosed | Tmax | 1.5 h |
